Measurements collected from several papers.
Every numbered part comes from another study and shows a few of its results, in no order.

Set 1
Target: Sal-like protein 4, full length isoform A (SALL4, Homo sapiens, UniProt Q9UJQ4, residues 1-1053)
UniProt Q9UJQ4, sequence (whole entry, looked up): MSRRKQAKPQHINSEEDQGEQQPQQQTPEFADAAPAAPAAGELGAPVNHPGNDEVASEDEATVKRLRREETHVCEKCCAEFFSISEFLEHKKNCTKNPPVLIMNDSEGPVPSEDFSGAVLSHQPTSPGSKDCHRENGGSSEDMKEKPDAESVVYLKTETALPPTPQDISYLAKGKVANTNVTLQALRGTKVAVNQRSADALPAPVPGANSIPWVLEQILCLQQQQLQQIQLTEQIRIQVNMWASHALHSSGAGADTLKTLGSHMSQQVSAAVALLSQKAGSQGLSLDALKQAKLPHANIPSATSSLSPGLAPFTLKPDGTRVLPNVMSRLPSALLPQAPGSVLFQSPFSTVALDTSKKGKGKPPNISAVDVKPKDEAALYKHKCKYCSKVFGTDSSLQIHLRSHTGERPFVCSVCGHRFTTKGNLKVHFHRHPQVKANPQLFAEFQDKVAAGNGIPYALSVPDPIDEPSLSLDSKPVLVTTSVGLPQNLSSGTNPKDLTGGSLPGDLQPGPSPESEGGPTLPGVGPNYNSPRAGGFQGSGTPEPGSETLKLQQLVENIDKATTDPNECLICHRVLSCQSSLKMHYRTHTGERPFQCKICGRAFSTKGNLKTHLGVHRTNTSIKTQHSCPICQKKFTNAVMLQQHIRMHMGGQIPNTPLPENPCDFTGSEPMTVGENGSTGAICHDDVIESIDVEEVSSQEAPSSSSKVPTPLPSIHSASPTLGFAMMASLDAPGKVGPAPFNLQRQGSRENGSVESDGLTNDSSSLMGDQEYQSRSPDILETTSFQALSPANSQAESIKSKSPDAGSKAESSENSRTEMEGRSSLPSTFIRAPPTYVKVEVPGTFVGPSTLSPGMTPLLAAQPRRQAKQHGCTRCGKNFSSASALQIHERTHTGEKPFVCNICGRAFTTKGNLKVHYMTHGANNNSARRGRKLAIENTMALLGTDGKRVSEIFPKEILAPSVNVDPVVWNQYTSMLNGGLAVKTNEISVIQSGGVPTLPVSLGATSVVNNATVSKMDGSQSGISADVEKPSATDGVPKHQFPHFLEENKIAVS
Method: universal PBM
Form: double-stranded DNA, one strand shown
Matrix: in vitro
Concentration: 600 nM
Setting: 8-mer, flanks averaged, mean of replicates
Direction: higher = stronger binding
Measurement: E-score
CGCAGAAG: -0.124
CCGCATAA: 0.221
TTATTGAA: 0.42
ACAGAAAC: 0.0644
CCACTCAG: -0.127
GAAGGACA: 0.0247
AACGCTTA: -0.0484
TTAAGAAA: 0.283
AATCTCGT: 0.0637
AAATAAAC: 0.361
AGGGCCTC: -0.313
AAGACCAG: -0.198
GTAACTAA: 0.0961
ATAAGTAG: 0.249
ACACAAGA: 0.163
CAACAAGG: 0.0428
AGAACGCT: -0.0667
ACGGCGGA: -0.243
ACAACAAT: 0.231

Set 2
Target: Interferon regulatory factor 5, full length, phosphomimetic (IRF5, Homo sapiens, UniProt Q13568-2, residues 1-514, K96S/S451D/S453D/S456D/S462D)
Method: protein-binding microarray
Form: double-stranded DNA, one strand shown
Matrix: in vitro
Concentration: 250 nM
Setting: 60-bp whole probe
Added: salmon DNA 0.4 mg/ml
Baseline: random background probes
Direction: higher = stronger binding
Measurement: log fluorescence
Shared flanks, not repeated: GCCTAGCAC … GTCTTGATTCGCTTGACGCTGCTG
GACGGTATCGTCTATCGGGACGTGCTA: 1.66 z-score
CTGCAGCCCACTCCTGAACAGTGCTAG: -0.28 z-score
GACTGACTGGGTATCGGGACGTGCTAG: 0.479 z-score
GACTGTCTCGGTATCGGGACGTGCTAG: 1.26 z-score
TTTACTAGGAGTTTTCAGTCCGTGCTA: 1.07 z-score
GACGGACTGGGGTTTAGGGACGTGCTA: -0.317 z-score
TCATTTTTGCATTGCTTACTGTGCTAG: 0.964 z-score
GACGATATCAGTACCGAGACGTGCTAG: 0.958 z-score
TTAGATATCGGGTTTGGATTAGTGCTA: 1.62 z-score
GACGGACTGCTATTGCTGACGTGCTAG: -0.531 z-score
ACAGCTCTGCGGTTCAGATAGTGCTAG: -0.252 z-score
TTAGGTTTCGACTTTCCGTTAGTGCTA: 7.29 z-score
TTGGATTTCGGGTATCGATTAGTGCTA: 7.15 z-score
GACCATTTCGGGTATCGAGACGTGCTA: 3.96 z-score
TAAGGTATCCTTATCCTTTAGTGCTAG: 0.0358 z-score
GACGGATTCGGTATCGGGACGTGCTAG: 1.62 z-score
GACGGACTGCGGACTGGGGACGTGCTA: -0.452 z-score
TCACTTATCCTTCCCCTACTGTGCTAG: 0.318 z-score
GACGGTTCCCTTCTCCTGACGTGCTAG: 0.0375 z-score
TTAGATTTCGGGTTTCGATTCGTGCTA: 8 z-score
TTAGAACTGAGACGGGATTAGTGCTAG: -0.404 z-score
TTAAATTTCGGGTTTCGATTAGTGCTA: 9.66 z-score
GACGAACTGAGCTTCGAGACGTGCTAG: -0.0323 z-score
TTAGGGTTCGACACTGGGTTAGTGCTA: 0.0797 z-score
TTAGGTTGCGACTATCGGTTAGTGCTA: 6.54 z-score

Set 3
Target: RNA binding protein fox-1 homolog 2, RRM domain, GST-SBP tag (RBFOX2, Homo sapiens, UniProt O43251-10, residues 100-194)
Method: RNA Bind-n-Seq
Form: RNA
Matrix: in vitro
Concentration: 365 nM
Setting: natural RNA segment, single round, ends assumed
Baseline: no-protein control
Direction: higher = stronger binding
Measurement: RBNS enrichment (R)
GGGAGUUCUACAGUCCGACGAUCUCCCAGUACCCCCAAGAACGUCUGAGCCUUCAAUGUUGAAUUUUUUCUUUAUUAAAAUUACUUUUAUCUUAUAAAAUCAACUAAUCAAAAAUGAUAUAGACGACAGCACUUGGAAUUCUCGGGUGCCAA: 0.621
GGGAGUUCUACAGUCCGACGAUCUCUUCCCGAGCUGUUUUUCCGAGCAGUUUUGUUCGUGUCUCUUAAGGAAAUCACCAGCUUUGGCAUCUGACCAACAAACAGUGAGUGGGAGACGUGAUUUCCGAUGCGCAUGGAAUUCUCGGGUGCCAA: 0.784
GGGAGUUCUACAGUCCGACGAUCUCCUAACGUUGCGUUAACAUAUUUGUAUAUAUGCUGGUCUCAACUUUGGAUCUAGACCUGGGGCCAGAUGUAUCUAGUGGAUAGACUUGCAGGGCCAUGCAGGCCGGACUUGGAAUUCUCGGGUGCCAA: 0.527
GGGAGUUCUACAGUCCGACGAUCUUUCUUUUCAGUACAAGUAUUUGUAGUUUGUAAUGAAUGUGCCACAUACAGGUUUUGUAGCUUAUUAUUAUGGAACAGACUGAAGAUCUGCAGUACGAAUUUAAUACUUAUGGAAUUCUCGGGUGCCAA: 0.399
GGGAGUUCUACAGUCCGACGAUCGGCGCAUCUGCCCUGGUCAGCUGUUUCUCGAAGGGAGUGAUCUUAUCGAUAGAGGUAGAAAUGGUUUCCCUCCAAGGUUGGGUCAAUGUGUAAAUUGCUAUUCAACACUUUGGAAUUCUCGGGUGCCAA: 0.553
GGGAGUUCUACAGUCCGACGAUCCCAGUGAUUUCUCCUGUUUCUUGGUGGGGGUGGGGGGGAAGGUACGUAUUCUGCAAUAUGGCUAAACCCUUUCCUGAUUGAGAGUUAAAGCAAUAGGAGUCAAGUUACUGUGGAAUUCUCGGGUGCCAA: 0.414
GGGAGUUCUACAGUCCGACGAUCUAUGCAUGUUACCUUAUGUGUAUUUAAUCAUGAAACUUAAUUUUUGCACACUUGUUUGUACUGUUUUCUUUGAAAUAAAAGUGACUAAUUUUGUCGUACUCUAUCUGUAAUGGAAUUCUCGGGUGCCAA: 21.4
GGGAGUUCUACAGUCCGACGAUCGCUUAGAAUGCAGCCCUACCUGGAGAUAGUGCGGGCACCUGUGGCCAAGUGGAGCAGAGGUGGACAUGGGGUUGGAUUGUUUUGAUUAUUUAUAGUUACACAAGGACUUCUGGAAUUCUCGGGUGCCAA: 8
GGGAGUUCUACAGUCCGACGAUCCUCUUGGAGCUCCUGGCGCUCCCCACCCGGUGUCCCCAGUGGAAGGGAUGGGGUGAAGCCCAGAGUGGGGGGGGGCAAGGUGUUCUCCCUCUGCAAGUGGAAUGUUACCCUGGAAUUCUCGGGUGCCAA: 2.66
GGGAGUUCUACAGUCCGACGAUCACUUUCAAAAAGAAUCAUCAUUGAUUAUUCUUGUUUCACAUCUGAGGAUGAAGGCUAACGGCUGUGCUUGCCCUGGUUACUGGAUGGGAUUCUCUGCUGGGCGGGUGGGGUGGAAUUCUCGGGUGCCAA: 0.426
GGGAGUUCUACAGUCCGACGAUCUUGCUCAGCAGCGGACUUACUCCCAGCGCCUUCCCUCCCUCCUGUCCCUCCUGUCCCCUCACUGUCCACUUUCUGUUCUUUCCUUGGGUUUCCUGUGAAGUUGGAGGGACUGGAAUUCUCGGGUGCCAA: 1.08
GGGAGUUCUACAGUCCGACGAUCGCAUAUGCUUAUAUGUGAAUGUGUCCACAAAUCCCACCCCCUCUCCGUUCUGUCCCCCAUUCAAGGAAUGACAUUCUCAGUCACCCAGAGCCAUCUGGCCUACCCUCUCAUGGAAUUCUCGGGUGCCAA: 0.473

Set 4
Target: RING finger protein unkempt homolog, zinc fingers 1-6, SBP tag (UNK, Homo sapiens, UniProt Q9C0B0, residues 30-357)
UniProt Q9C0B0, sequence (30-357, looked up): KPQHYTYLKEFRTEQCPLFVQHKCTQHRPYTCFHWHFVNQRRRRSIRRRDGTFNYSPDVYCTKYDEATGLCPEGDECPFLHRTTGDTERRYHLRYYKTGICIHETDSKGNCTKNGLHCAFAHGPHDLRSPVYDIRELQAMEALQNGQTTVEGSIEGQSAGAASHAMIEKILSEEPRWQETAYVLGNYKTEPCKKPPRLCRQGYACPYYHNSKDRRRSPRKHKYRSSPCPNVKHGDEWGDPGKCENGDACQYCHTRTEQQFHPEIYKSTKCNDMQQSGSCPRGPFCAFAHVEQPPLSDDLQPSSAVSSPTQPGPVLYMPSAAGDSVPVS
Method: RNA Bind-n-Seq
Form: RNA
Matrix: in vitro
Concentration: 100 nM
Setting: RNA with constant flanks, vertebrate orthologous sites, ends assumed
Baseline: input RNA pool
Direction: higher = stronger binding
Measurement: bound/input enrichment
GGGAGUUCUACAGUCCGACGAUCGUGAGGAGGGGGAAAGACGAGAUUAUUCUCCCACCCCAAAUAAAGCCGAUAUAAUUUGCUUUCAGUUCUGUCUUGGAAAACAGAGCUGGCCUUUUCUCUUAAUUGUGUAACAACAUCCUCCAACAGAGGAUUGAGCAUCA: 0.623 ratio
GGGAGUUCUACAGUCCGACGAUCUGAGCAUACAUAUACAAUGUGUUUCAAAUGCUGCUUGUAAAAUUAAACCAUCAUCUAGAAUAGAGUUAAUUUGUUAUAAUCAAGCUACAAAUAGGUUUUCUUAAACCAGAGAUGCACUGCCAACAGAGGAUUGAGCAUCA: 0.466 ratio
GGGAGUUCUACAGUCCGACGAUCGGUGUUUUCAAACAAUAGGAAGCUUUUAUUGUUUCACAGUUUAGUGUCUGGUUUCUAUGUGGAAGACUAAACUCAUGCUUAUAGCUAAAGGGGUGUUUGCCAACUAAAUUUAAGAUGCAGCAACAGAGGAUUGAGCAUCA: 0.596 ratio
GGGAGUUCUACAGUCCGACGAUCUUGGGACCAACUCUCCAAAUAGGAAUAGUAGUAAAAAAAAUAAGCAAAAUGAUAUUUGUAUAGAAAAAACAGAAGUUAAAUCAUGUAAAGUAAAUGCUGCCAGUGUUCCAGGCCCUAAAGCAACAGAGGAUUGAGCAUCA: 2.11 ratio
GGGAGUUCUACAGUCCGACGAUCGUGGGGAUCGGGGUGGGGUGGGAAGAAGAUGUAUGGAUGUUACUGGCAUUUUUAAGUGUUAAGAGUUUUUUGUGUUGUUGUUGUUUUUUUUCCUCUUGUUUUGUUCUUCCCCUUUAAUUACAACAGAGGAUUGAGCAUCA: 0.936 ratio
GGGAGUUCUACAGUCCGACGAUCUUACAGUCAUUGAUGGACUCUAUUUUUUUAUUAUUACUUGGACCUUGGUCGUUUUUAUACUAGCAACAAAAAUGGUUUUGUUUCUGUUCUUUUUUUUUUGUUUGUUUUUUUUCCUUCUUUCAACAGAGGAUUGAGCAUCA: 1.28 ratio
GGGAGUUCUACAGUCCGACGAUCGUGUUGGUGCAGAGUGCUCUGUACCAGUGCUCAUCGUCCCUUCUUCAUACCAACUGUCCUAGUUAUAGGGAUAUUUUUAAAAGUUUUACAUUGCUGUAUAUUCAAAGAAUUGUUUUAUUACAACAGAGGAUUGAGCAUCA: 0.434 ratio
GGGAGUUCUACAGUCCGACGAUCGACAUAAUUGCAUACAAUAAUGAAAACCUAUAGAAAAUUUGUUUUUCAUUUUCCCCUUAGGCAUAGUCUUUUUUCCCAGGCAGAUCAUUCUGAGUGUGCGAGUGUGUGUGCACAUGUUACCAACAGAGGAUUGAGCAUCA: 1.11 ratio
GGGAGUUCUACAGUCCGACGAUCGCCAUUUUUUUUCCACGUUUUCUGUAAAUAAUGGAUAAUCAUUUUUAAAAAUUUUAUUUUUAGUGCUGUUUUAGCAAUGUGGAUAGAUCAUAAAUGUACUUGCUGAAUUCAAUCAUUUUUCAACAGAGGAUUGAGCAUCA: 0.279 ratio
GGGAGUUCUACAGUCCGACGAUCUUACAGUCAUUGAUGGACUCUAUUUUUUUAUUAUUACUUGGACCUUGGUCGUUUUUAUACUAGCAAAACGUCUUGUUUUAAUUUGUGUUUUUUGGGGGGGAGGGAGUGAACUUGCUGAUUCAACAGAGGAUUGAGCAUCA: 2.02 ratio
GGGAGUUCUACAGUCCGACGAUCGCAAUGAAAAAGCAGCCCUUCUCCCAGCCCCCUUUUCACUAGGAGAUACAAACGUUACCAUAGAAGAGCAAUUAAACUCAAUAAAUUUAUCUUUUCAGGAUGAUCCAGACUCCAGUACCACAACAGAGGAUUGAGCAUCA: 1.64 ratio

Set 5
Target: Histone acetyltransferase KAT6A, both winged helices, GST fusion (KAT6A, Homo sapiens, UniProt Q92794, residues 1-181)
Method: protein binding microarray
Form: double-stranded DNA, one strand shown
Matrix: in vitro
Concentration: not given
Setting: 8-mer, flanks averaged, mean of 2 arrays, mostly near background
Baseline: not given
Direction: higher = stronger binding
Measurement: E-score
Target sequence (chain): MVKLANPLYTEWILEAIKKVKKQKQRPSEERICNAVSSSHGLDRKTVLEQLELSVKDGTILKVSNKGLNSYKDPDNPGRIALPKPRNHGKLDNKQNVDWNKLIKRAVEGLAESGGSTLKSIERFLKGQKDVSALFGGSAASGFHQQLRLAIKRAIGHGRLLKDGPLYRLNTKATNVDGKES
ACTTGAAC: -0.0922
GCTACATA: -0.0547
TAAGTAGA: -0.0698
ATCTCGTA: -0.0642
GTTCCAAC: 0.00877
GGCGTCCA: 0.0406
CAAGCTGG: -0.0794
AATGGACG: 0.185
CTACTGGC: -0.0479
GACTTAGC: -0.07
GATTCACA: -0.114
GGCGCCCC: 0.278
CCAGAGGA: -0.206
GCAGCCTA: -0.144
CAAATACC: -0.0484
TAACTGAA: -0.138
CTCGATTC: -0.0197
CAGAATGG: -0.201
TCCGAGAA: 0.129
TCCGGCCA: 0.0671
CTTCTCGA: -0.143
CGACCAGA: -0.0173
GCATACGC: 0.172
CGTCACGC: 0.265
GAAGTGGA: 0.018

Repeated from above (set 2):
ACAGCTCTGCGGTTCAGATAGTGCTAG: -0.252 z-score
TTAGGTTTCGACTTTCCGTTAGTGCTA: 7.29 z-score
TTGGATTTCGGGTATCGATTAGTGCTA: 7.15 z-score
GACCATTTCGGGTATCGAGACGTGCTA: 3.96 z-score
TAAGGTATCCTTATCCTTTAGTGCTAG: 0.0358 z-score
GACGGATTCGGTATCGGGACGTGCTAG: 1.62 z-score
GACGGACTGCGGACTGGGGACGTGCTA: -0.452 z-score
TCACTTATCCTTCCCCTACTGTGCTAG: 0.318 z-score
GACGGTTCCCTTCTCCTGACGTGCTAG: 0.0375 z-score
